# Measured values gathered from unrelated publications.
# Each line is one published result; not all experiments were run side by side. Values joined by “and” are separate records of one study, mostly repeats; a detail may differ.
Structure (SMILES),assay,test system,conditions,scale,measurement,result
Cl.[2H]C([2H])([2H])CC(=O)c1cnc(NC(=O)C2CC2)cc1Nc1cccc(-c2ncn(C([2H])([2H])[2H])n2)c1OC,geometric mean,human,"oral, 100 mg single dose, fasted, liquid",,AUC(0-24 h),9380 ng·h/mL
CNC(=O)c1ccc(-c2cnc3ncc(Cc4ccc5ncccc5c4)n3n2)cc1F,"item: Ascites, all grades",hepatocellular carcinoma patients,"oral, 600 mg twice daily, expansion cohort, any causality",,patients with adverse event,36%
Cn1nc2c(=O)n(C3CC3)ccc2c1[C@](O)(c1ccc(C(F)(F)F)nc1)C1CC1,,"rat Sprague-Dawley male, blood","intravenous, 1 mg/kg",,"CLint,u",15.6 mL/min/kg
NC(=O)c1cnc2[nH]ccc2c1N[C@@H]1[C@@H]2CC3C[C@H]1C[C@@](O)(C3)C2,,"healthy human volunteers, plasma","oral, population PK model, bootstrap median",,zero-order absorption duration,1.29 h
CO[C@H]1C[C@@H]2CC[C@@H](C)[C@@](O)(O2)C(=O)C(=O)N2CCCC[C@H]2C(=O)O[C@H]([C@H](C)C[C@@H]2CC[C@@H](OC(=O)NCCOCCOCCOCCOCCOCCOCCOCCOCCC(=O)N3CCc4cc(Cn5nc(-c6ccc7oc(N)nc7c6)c6c(N)ncnc65)ccc4C3)[C@H](OC)C2)C[C@@H](O)[C@H](C)/C=C(\C)[C@@H](O)[C@@H](OC)C(=O)[C@H](C)C[C@H](C)/C=C/C=C/C=C/1C,,"human patients, plasma","intravenous, 10 mg, cycle 1 day 1, 2 h infusion",,Tmax,1 h
CC1(C)CCC(CN2CCN(c3ccc(C(=O)NS(=O)(=O)c4ccc(NCC5CCOCC5)c([N+](=O)[O-])c4)c(Oc4cnc5[nH]ccc5c4)c3)CC2)=C(c2ccc(Cl)cc2)C1,,human,concentration not given,,absolute neutrophil count,400 to 900 cells/µL
CC(C)(C(=O)N1CCOc2c(C#N)cncc2C1)C(F)F,item: renal and urinary disorders,human,"oral, 10 mg, CSF pharmacokinetic cohort",,subjects with adverse event,0%
C=CC(=O)Nc1cc(Nc2nccc(-c3cn(C)c4ccccc34)n2)c(OC)cc1N(C)CCN(C)C,,"human patients, plasma","oral, median",,oral clearance,14.9 L/h
C[C@@H](c1nc(-c2ccc(C#N)cc2)cs1)[C@](O)(Cn1cncn1)c1cc(F)ccc1F,,healthy humans,"oral, dose not given, together with: ketoconazole",,adverse event Headache,0%
CC(C)n1c(Nc2cccnc2)nc2cnc(Nc3ccc(N4CCN(C)CC4)cc3)nc21,item: alanine aminotransferase increased,healthy male subjects,"oral, 100 mg, study, together with: gemfibrozil",,subjects with adverse event,21.4%
O=S(=O)(c1ccc(-c2ccc3nccc(Nc4ccncn4)c3c2)cc1)N1CCOCC1,,"female BALB/c mouse, plasma","intraperitoneal, 10 mg/kg, 24 h",,concentration,0 ng/mL
CCc1c(-c2ccccc2)c(-c2ccccc2)nn1-c1ccccc1-c1cccc(OCC(=O)O)c1,,"Sprague-Dawley rat, heart","oral, 10 mg/kg, 1 h",,concentration,3210 ng/g and 2680 ng/g
C[C@H](Oc1ccc(Br)cc1-c1ccon1)C(=O)O,,"human, plasma","200 mg once daily, day 10",relative to: day 1,accumulation ratio (AUC),0.918
Nc1ncn([C@H]2C[C@H](O)[C@@H](CO)O2)c(=O)n1,,processed mouse plasma,"80 ng/mL, 12 h, 4 °C, autosampler stability",,mean deviation from nominal,-3.32%
OC[C@H]1O[C@@H](c2ccc(Cl)c(Cc3ccc(O[C@H]4CCOC4)cc3)c2)[C@H](O)[C@@H](O)[C@@H]1O,,"Japanese type 1 diabetes patients, blood","10 mg, day 28",relative to: baseline,change in AST,1 U/L
Cc1nc(C)c(-c2ccnc(Nc3ccc(N(C)C)c(Cl)c3)n2)s1,,"octanol/buffer, 40 mM buffer",pH 11,,logP,4.3
O=C(Nc1ccc(OC(F)(F)Cl)cc1)c1cnc(N2CC[C@@H](O)C2)c(-c2ccn[nH]2)c1,"per laboratory record, item: hemoglobin decrease",human patients,"oral, dose not given",,grade ≥3 event rate,0.1%
N=C(N)NC(=O)c1ccc(Cl)c(S(N)(=O)=O)c1,,octanol/buffer,"pH 11, urokinase ligand set",,logP,-1.59
C=CC(=O)Nc1cc(Nc2nccc(-c3cn(C)c4ccccc34)n2)c(OC)cc1N(C)CCN(C)C,storage stability,human plasma,"72 h, on ice, high QC level",,recovery,77.2%
CCCCC[C@H](O)CC[C@@H]1[C@H]2Cc3cccc(OCC(=O)O)c3C[C@H]2C[C@H]1O,LC-MS/MS,"Japanese PAH patients, plasma","inhaled, 54 µg, background ERA therapy",,geometric mean AUC(0-last),0.48 ng·h/mL

# Repeated from above:
Structure (SMILES),assay,test system,conditions,scale,measurement,result
Nc1ncn([C@H]2C[C@H](O)[C@@H](CO)O2)c(=O)n1,,processed mouse plasma,"80 ng/mL, 12 h, 4 °C, autosampler stability",,mean deviation from nominal,-3.32%
